Published values from different studies.
Numbered parts are unrelated; each lists some results of a single study. Positions count from the first letter of the parent shown.

Block 1 — technique: DHFR PCA, deep sequencing; medium: yeast; with: (+)-ABA 17 µM; reference: wild-type fitted maximum; reading: higher = stronger binding
Target: ABI1, truncated, D143A, DHFR fusion (Arabidopsis thaliana)
Notes: methotrexate growth selection, single substitutions
Parent: PYL1, truncated, DHFR fusion (Arabidopsis thaliana); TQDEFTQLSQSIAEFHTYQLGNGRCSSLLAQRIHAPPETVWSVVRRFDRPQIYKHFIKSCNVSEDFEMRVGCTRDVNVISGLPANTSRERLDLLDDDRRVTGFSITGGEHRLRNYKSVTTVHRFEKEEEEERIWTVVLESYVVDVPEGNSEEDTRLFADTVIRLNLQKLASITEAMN; partner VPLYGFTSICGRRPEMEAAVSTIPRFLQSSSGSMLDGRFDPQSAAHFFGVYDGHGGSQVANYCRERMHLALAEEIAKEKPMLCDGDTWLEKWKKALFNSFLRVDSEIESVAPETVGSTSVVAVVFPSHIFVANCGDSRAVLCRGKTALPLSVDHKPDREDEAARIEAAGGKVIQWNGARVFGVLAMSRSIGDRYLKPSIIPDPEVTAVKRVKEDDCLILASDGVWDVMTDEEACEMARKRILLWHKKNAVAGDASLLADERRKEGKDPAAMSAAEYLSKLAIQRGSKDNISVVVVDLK
`I162H` — result for “relative binding score”: -11.9%.
Under “relative binding score”, `D97T` is recorded as 100%.
For `L112F`, “relative binding score” read 74.6%.
`A170G`: “relative binding score” 65%.
`A13Q`: “relative binding score” 80.5%.
For `T1R`, “relative binding score” read 76.8%.
Under “relative binding score”, `S9M` is recorded as 67.7%.
For `P83H`, “relative binding score” read 13%.
For `Q10F`, “relative binding score” read 47.7%.
`P37K`: “relative binding score” -23.5%.
`D65F`: “relative binding score” 58.2%.
For `V145C`, “relative binding score” read 67.7%.
Under “relative binding score”, `R46V` is recorded as 25.8%.
`K116D` — result for “relative binding score”: -8.08%.
`E67Y`: “relative binding score” 66.8%.
`L164S` — result for “relative binding score”: 80.1%.
`T154N` — result for “relative binding score”: -12.4%.
Under “relative binding score”, `A30Q` is recorded as 80%.
For `S80W`, “relative binding score” read 11.6%.
For `T1H`, “relative binding score” read 81.5%.
`M68G` — result for “relative binding score”: 61.6%.
`L29Y` — result for “relative binding score”: 23.7%.
`L91D`: “relative binding score” 11.8%.
Under “relative binding score”, `S9P` is recorded as 44.7%.
For `D153G`, “relative binding score” read 0.351%.

Block 2 — technique: protein-binding microarray; form: double-stranded DNA, one strand shown; medium: in vitro; concentration: not given; reading: higher = stronger binding
Target: Hepatocyte nuclear factor 3-beta, forkhead domain (FOXA2, Homo sapiens, UniProt Q9Y261, residues 142-269)
Notes: k-mer, scored over probes, only values ≥0.25
Target sequence (chain): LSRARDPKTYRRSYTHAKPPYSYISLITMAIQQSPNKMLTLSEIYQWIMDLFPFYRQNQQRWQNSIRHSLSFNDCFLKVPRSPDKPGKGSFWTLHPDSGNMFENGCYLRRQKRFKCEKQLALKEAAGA
With `ATACATCG` the E-score was 0.251.
`AGTACTAA` gave an E-score of 0.254.
`CCATATTA` gave an E-score of 0.271.
The E-score of `ACAATAAT` is reported as 0.307.
`AATACAAC` gave an E-score of 0.309.
For `CAACAATA`, the E-score was 0.318.
The E-score of `GTACATTA` is reported as 0.295.
With `AATATGTC` the E-score was 0.311.
`TGTAATAA` has an E-score of 0.31.
`AATACACA` gave an E-score of 0.349.
The E-score of `AATTATTC` is reported as 0.281.
With `AATCGTAT` the E-score was 0.29.
For `AACCCATA`, the E-score was 0.357.
For `GAATAGCA`, the E-score was 0.255.
For `ACACTTAT`, the E-score was 0.322.
`AAACACTA` gave an E-score of 0.272.
For `ATATTATA`, the E-score was 0.324.
For `ATTCATAC`, the E-score was 0.264.
For `GTAAAGAA`, the E-score was 0.266.
`ATTGTTAG` has an E-score of 0.276.
`AGTATACA` has an E-score of 0.316.
`AATCATTG` has an E-score of 0.255.
`CATATACA` gave an E-score of 0.42.
For `GAATACTA`, the E-score was 0.259.
`CTATTCAA` gave an E-score of 0.348.

Block 3 — technique: RNA Bind-n-Seq; form: RNA; medium: in vitro; concentration: not given; reference: input RNA pool; reading: higher = stronger binding
Target: RING finger protein unkempt homolog, zinc fingers 1-6, GST-SBP tag (UNK, Homo sapiens, UniProt Q9C0B0, residues 30-357)
Chain of UniProt Q9C0B0 (30-357, looked up): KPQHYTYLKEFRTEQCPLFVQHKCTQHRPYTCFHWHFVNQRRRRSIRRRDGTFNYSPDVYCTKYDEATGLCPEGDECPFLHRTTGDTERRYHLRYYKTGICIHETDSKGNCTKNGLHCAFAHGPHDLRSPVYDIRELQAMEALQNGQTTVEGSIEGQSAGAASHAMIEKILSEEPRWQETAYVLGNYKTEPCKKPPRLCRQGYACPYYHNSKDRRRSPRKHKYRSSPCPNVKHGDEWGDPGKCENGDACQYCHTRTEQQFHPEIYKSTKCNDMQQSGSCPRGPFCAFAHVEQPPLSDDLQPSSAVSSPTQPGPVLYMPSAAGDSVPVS
Notes: RNA with constant flanks, human-mouse chimeric sites, ends assumed
`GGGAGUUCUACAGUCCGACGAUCUGGCGCCUGCGCUCCCCACUCGUGUUUUUAAGUGUAUUUUUAUAAGAUACAUGUAUUUACAAUUGAGUUUUUGAUUAAUAAUGCUGAAAUGCUACUGGAGAUUAUGAAAAAUGUUUCAAUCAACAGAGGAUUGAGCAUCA` gave a bound/input enrichment of 0.147 ratio.
For `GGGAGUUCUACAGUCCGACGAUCAGAGAUAAGACAUCCAGAAAUAUGAGAGGCUCCCGGAUGAAUGGGUUGCCUAGCCCCACUCAUAGUGCCCACUGUAGCUUCUACCGAACCAGAACCUUGCAGGCACUGAGUAAUGAGAAGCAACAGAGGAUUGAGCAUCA`, the bound/input enrichment was 0.167 ratio.
`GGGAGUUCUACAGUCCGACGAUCAAAGUGGACUAUGGCGAGUACAUGGAUAAAAAUAAUGUGAGGCGACAAGCAACAACAAUCAUAGCUGAUAACAUUAUAUUUCUGAGUGACCAGACAAAAGAAAAGGCAUAGAACGGAUGACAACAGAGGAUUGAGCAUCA` gave a bound/input enrichment of 1.49 ratio.
`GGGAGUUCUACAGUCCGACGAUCGGCCUGGACCUUCCUGGGGCUAGUACAAAUAGCGGCAGUGGAGGCUCGAGAGGAAAGUUUGUUAGUGGAGGCAGUGGUAGAGGCCGUCAUGUACGGUCCUUUACUCGAUAGAUGUGUUCUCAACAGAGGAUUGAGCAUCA` has a bound/input enrichment of 0.287 ratio.
`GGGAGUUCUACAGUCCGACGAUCUUUCUAUUGCAGCAAACGAUGCUAAGAAUUAAGGAUCCUAAGAAGUCCCUGGAUUUUUAUACGAGGGUUCUUGGACUGACCCUCCUGCAGAAGCUUGACUUCCCUGCUAUGAAGUUUUCGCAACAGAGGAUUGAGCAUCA` has a bound/input enrichment of 0.314 ratio.
`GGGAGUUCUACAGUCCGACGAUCGAAUCCUACUCAGGCGGAUUUUGCAACCUGAAUGCAACAGCAGCAGCAUCUUAGUCACAGUAGGGUAGUUUUGGGGCUCUGUGGCCAGGGUUUUAUUCAUGUGCAGGUUUGGAAAAUGUACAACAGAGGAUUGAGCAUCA` gave a bound/input enrichment of 1.1 ratio.
For `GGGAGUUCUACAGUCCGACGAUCGGCCUGGGACCGUCCUGGCUAGUGCAAAAUAGCGGCAGUGGAGGCUCGAGAGGAAAGUUGUUAGUGGGAGGCAGUGGUAGAGGCCGUCAUGUACGGUCCUUUACUCGAUAGAUGUGUUCUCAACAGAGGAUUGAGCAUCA`, the bound/input enrichment was 0.747 ratio.
For `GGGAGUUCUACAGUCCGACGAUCGAUCAUGAACCACCAUCCAGAAAUGAAAUGAGAUUACCCAGACGAGCCAAAACAGCUGCGCUACAGAAAAGUAAACUUAACCUUGCAGAGUUCCUUAAAUGAAGAUCAAGUUAAGAGAGCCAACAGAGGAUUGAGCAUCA`, the bound/input enrichment was 0.367 ratio.

Block 4 — technique: RNA Bind-n-Seq; form: RNA; medium: in vitro; concentration: 365 nM; reference: no-protein control; reading: higher = stronger binding
Target: RNA binding protein fox-1 homolog 2, RRM domain, GST-SBP tag (RBFOX2, Homo sapiens, UniProt O43251-10, residues 100-194)
Notes: natural RNA segment, single round, ends assumed
Construct (chain): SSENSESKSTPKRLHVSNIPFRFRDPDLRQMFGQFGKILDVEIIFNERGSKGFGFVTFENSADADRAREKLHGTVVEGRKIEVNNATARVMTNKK
Under “RBNS enrichment (R)”, `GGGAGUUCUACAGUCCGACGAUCGUGUGUUCCCUGUAACUGCCCCAUAGUGGGCAGCCCUGGAGGAACAAGGGGCUGGCUGUCCUGGGCUCCCUGACCCACUGAAGCUUCUCAGCACGUUCCUCCCUGGAGAGUGGAAUUCUCGGGUGCCAA` is recorded as 10.7.
For `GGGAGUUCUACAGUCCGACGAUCGACAUCAGAAAUCACCAGAACCUUCAGGAUCGCCUGCAGGCAGCCCAUCUACUGCUGGCCAGGAGCCCCCAGUGCCCUGUGGUGGUGGACACCAUGCAGAACCAGAGCAGUGGAAUUCUCGGGUGCCAA`, “RBNS enrichment (R)” read 0.274.
`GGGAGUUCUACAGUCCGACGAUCAAAUGGAUUCCCUGGCUGAGCCAGUGUCUCUUUCCCACUGUCCUUUCUCCAGGUGUGCAGAUGGCAUGUUAGUGUGGGCACGCUGUUAAGUGGGUAUCCCACCUCCAGCCUGGAAUUCUCGGGUGCCAA`: “RBNS enrichment (R)” 1.77.
`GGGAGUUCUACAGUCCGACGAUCUCUCCUGACACCUCUUGUGGGGUGCAUGUUCCUGCUCCAGGUAUGCUGUUCAUGUGGAUUCAUUCCAUUCAGUGGCCCCUUGGGGUUUGCAUGCCAGUGAAGCGUUACCAUGGAAUUCUCGGGUGCCAA` — result for “RBNS enrichment (R)”: 2.96.
`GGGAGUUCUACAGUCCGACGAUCCAUGGCAAAGACAAUGCUGACACCACUCCACUGUGAGAGCAUAGUCUGGGGACACUGACUCAGCGAGUGUGUUCCAGACUGACUUCCAGGACACUGUGUGACGUCAGCAUUGGAAUUCUCGGGUGCCAA` — result for “RBNS enrichment (R)”: 0.437.
For `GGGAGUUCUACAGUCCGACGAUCGGAAAUGAAUGACUAAUACCAUUAUUUGAGUCUUAUGUGAAGACAACACUAUUCUAACACGAGAGAUAAUAUACAUGGUACUGUUUAUUCAACUGGGGAAAAAUAAAACUUGGAAUUCUCGGGUGCCAA`, “RBNS enrichment (R)” read 0.347.
For `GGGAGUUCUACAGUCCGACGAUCGACAUGUCUUCAUGUCCAGCUACUUGUUUCACCAUGGCAGACCUCCCUGAGCCUUCUUCCUGCCCUGGGUAGGAAGUGUGGCUCUGGGUCUGUGGUCACUCUCCACCUUGUGGAAUUCUCGGGUGCCAA`, “RBNS enrichment (R)” read 0.272.
For `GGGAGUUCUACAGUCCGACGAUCGUUUUUACUGUGAAUGUAAAUGGAACAGCAGCCCCAGACCCUUGUCUCUGCCCUAGAGGUGCUACCUGUGACAGGGACCAAGUGCAUGUGUGUUCAGUGUUUGACUCCAAUGGAAUUCUCGGGUGCCAA`, “RBNS enrichment (R)” read 0.995.

Block 5 — technique: protein binding microarray; form: double-stranded DNA, one strand shown; medium: in vitro; concentration: not given; reference: not given; reading: higher = stronger binding
Target: Histone acetyltransferase KAT6A, winged helix 2, GST fusion (KAT6A, Homo sapiens, UniProt Q92794, residues 85-181)
Notes: 8-mer, flanks averaged, mean of 2 arrays, mostly near background
Construct (chain): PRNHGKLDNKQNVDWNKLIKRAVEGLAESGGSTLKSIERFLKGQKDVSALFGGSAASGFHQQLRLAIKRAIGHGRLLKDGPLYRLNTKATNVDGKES
With `GCTCACTA` the E-score was -0.107.
The E-score of `GTTGGTAA` is reported as -0.0963.
For `AACGACTA`, the E-score was -0.078.
For `GCGTTATA`, the E-score was -0.0248.
`AGCGCCCG` has an E-score of 0.294.
With `GTAATCAA` the E-score was 0.0711.
With `AAGGATCC` the E-score was -0.145.
`CTCGCTTA` has an E-score of 0.0391.
The E-score of `TGACTCAA` is reported as -0.00466.
With `ATACCCTG` the E-score was 0.00984.
For `AACTCAGT`, the E-score was -0.11.
With `GAATCTGC` the E-score was 0.0433.
`CCTTGGCA` gave an E-score of -0.0808.
`CCATATCC` has an E-score of -0.142.
`CTCTGCAC` gave an E-score of -0.143.
With `GGACGATA` the E-score was -0.0949.
The E-score of `GAGCACGA` is reported as 0.0595.
`CCAGAGTC` gave an E-score of 0.0192.
For `GGTTGAAC`, the E-score was 0.0939.
`ACGGTTTC` gave an E-score of -0.106.
`CGCTCTAA` has an E-score of 0.00928.
The E-score of `GCTTTAAA` is reported as -0.00816.
`CCTCCCAA` has an E-score of 0.0547.
The E-score of `CGCCGTAG` is reported as 0.209.
For `CGGGATTC`, the E-score was 0.0784.

A few entries again (block 2):
For `ATTCATAC`, the E-score was 0.264.
The E-score of `AATTATTC` is reported as 0.281.
With `AATCGTAT` the E-score was 0.29.
With `AATATGTC` the E-score was 0.311.
`TGTAATAA` has an E-score of 0.31.
For `GAATACTA`, the E-score was 0.259.
`ATTGTTAG` has an E-score of 0.276.
For `AACCCATA`, the E-score was 0.357.
For `GAATAGCA`, the E-score was 0.255.
`AATACACA` gave an E-score of 0.349.
`AATACAAC` gave an E-score of 0.309.
With `ATACATCG` the E-score was 0.251.
`AGTATACA` has an E-score of 0.316.
`CCATATTA` gave an E-score of 0.271.
`AATCATTG` has an E-score of 0.255.
